Results from different studies.
Parts stem from different laboratories: compare values within a part only. Changes are numbered by the printed parent chain.
Sequence of UniProt Q96SW2 (whole entry, looked up): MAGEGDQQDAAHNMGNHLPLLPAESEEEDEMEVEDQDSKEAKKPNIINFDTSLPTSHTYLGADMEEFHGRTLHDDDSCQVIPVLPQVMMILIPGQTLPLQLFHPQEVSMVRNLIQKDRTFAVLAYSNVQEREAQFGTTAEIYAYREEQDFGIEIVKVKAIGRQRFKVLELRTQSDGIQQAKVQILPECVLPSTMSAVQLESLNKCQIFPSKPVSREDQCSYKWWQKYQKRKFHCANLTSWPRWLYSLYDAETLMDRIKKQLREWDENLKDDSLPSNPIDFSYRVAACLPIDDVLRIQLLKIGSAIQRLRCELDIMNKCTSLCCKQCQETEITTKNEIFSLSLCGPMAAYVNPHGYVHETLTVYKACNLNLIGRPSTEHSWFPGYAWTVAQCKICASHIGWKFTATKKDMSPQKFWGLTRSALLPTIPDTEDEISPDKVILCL
Sequence of UniProt Q9UKS7 (whole entry, looked up): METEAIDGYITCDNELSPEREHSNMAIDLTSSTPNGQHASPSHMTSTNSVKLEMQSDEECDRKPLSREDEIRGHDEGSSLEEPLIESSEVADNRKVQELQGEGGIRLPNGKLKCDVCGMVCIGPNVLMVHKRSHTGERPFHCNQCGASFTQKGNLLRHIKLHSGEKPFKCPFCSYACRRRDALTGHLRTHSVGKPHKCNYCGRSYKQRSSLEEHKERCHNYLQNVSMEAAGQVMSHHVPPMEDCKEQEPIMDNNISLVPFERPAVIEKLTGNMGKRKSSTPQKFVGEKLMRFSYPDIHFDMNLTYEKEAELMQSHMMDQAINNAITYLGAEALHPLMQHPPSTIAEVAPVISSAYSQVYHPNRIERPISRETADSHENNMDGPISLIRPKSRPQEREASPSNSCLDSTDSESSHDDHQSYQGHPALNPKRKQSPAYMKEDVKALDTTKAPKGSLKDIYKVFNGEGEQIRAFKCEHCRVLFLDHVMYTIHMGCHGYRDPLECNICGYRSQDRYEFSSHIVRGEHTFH

Block 1
Target: tungstate, free oxyanion
Technique: microfluidic competitive inhibition
Matrix: in vitro, cell-free expressed
Concentration: not given
Setting: derived from inhibition constants, unchanged parent 2230 nM
Reading: lower = stronger binding
Starting sequence: PafA, mature enzyme, eGFP fusion (Elizabethkingia meningoseptica, UniProt Q9KJX5); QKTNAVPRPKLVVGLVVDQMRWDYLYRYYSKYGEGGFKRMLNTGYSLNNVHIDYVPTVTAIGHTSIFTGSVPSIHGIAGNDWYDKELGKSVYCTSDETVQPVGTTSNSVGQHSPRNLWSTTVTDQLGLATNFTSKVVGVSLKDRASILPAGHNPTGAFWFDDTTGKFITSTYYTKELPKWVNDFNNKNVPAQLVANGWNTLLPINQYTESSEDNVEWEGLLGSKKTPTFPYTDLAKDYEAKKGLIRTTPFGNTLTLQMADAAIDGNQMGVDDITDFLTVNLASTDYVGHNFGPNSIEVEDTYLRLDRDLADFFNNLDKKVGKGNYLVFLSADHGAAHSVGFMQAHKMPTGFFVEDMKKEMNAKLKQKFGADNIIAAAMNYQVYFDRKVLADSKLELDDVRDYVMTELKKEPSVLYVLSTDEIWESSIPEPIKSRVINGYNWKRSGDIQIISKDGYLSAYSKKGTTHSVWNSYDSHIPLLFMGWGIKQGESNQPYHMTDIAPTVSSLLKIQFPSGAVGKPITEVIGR
Substitution	oxyanion analog dissociation constant
L396V	2.13 µM
N188G	1.93 µM
A500G	1.89 µM
P512G	1.8 µM
M342V	2.4 µM
S433V	1.73 µM
T64G	4.12 µM
Q267V	2.4 µM

Block 2
Target: CCND2, cyclin fold, Cln2 fusion (human)
Technique: yeast growth competition, sequencing
Matrix: yeast
Setting: weak parent motif
Baseline: not given
Reading: higher = stronger binding
Starting sequence: viral docking peptide; TSVRRALFTGGSD
Substitution	normalised enrichment score
TSVQRALFTGGSD [R4Q]	0.115
TSVRRALFTGFSD [G11F]	0.184
TSVRRALFTCGSD [G10C]	-0.0536
TSVRRLLFTGGSD [A6L]	0.343
TSVMRALFTGGSD [R4M]	-0.286
TSVRRALFVGGSD [T9V]	0.0729
TSVRRALFTGGYD [S12Y]	0.183
TSVRRARFTGGSD [L7R]	0.104

Further values, each from its own experiment
SMILES	target	assay	system	setting	quantity	value
O=C1CCC(N2Cc3c(ccc4c3OCC43CCN(Cc4ccccc4)CC3)C2=O)C(=O)N1 (stereo not drawn)	CRBN/Zinc finger protein Helios (Homo sapiens, UniProt Q96SW2+Q9UKS7)	degrader, HiBiT	HEK293	123.5 nM, 6 h	protein remaining	80.2%
COc1ccc2c(c1)O[C@H](c1ccc(OC)c(OC)c1)C[C@@H]2NC(=O)C1(c2ccc3c(c2)OC(F)(F)O3)CC1	Cyclin-dependent kinase 2 homolog (CRK2, Plasmodium falciparum, UniProt P61075)	cell-free assay, competition with immobilised ligand		1 µM	remaining binding	92%

Excerpt of the above (further values, each from its own experiment):
SMILES	target	assay	system	setting	quantity	value
O=C1CCC(N2Cc3c(ccc4c3OCC43CCN(Cc4ccccc4)CC3)C2=O)C(=O)N1 (stereo not drawn)	CRBN/Zinc finger protein Helios (Homo sapiens, UniProt Q96SW2+Q9UKS7)	degrader, HiBiT	HEK293	123.5 nM, 6 h	protein remaining	80.2%
COc1ccc2c(c1)O[C@H](c1ccc(OC)c(OC)c1)C[C@@H]2NC(=O)C1(c2ccc3c(c2)OC(F)(F)O3)CC1	Cyclin-dependent kinase 2 homolog (CRK2, Plasmodium falciparum, UniProt P61075)	cell-free assay, competition with immobilised ligand		1 µM	remaining binding	92%
